Experimental data from different studies.
Lines come from different studies, so protocols differ. Values joined by “and” are separate records of one study, mostly repeats; a detail may differ.
Sample: plasma

| Compound | host | route | dose | notes | bioavailability |
| --- | --- | --- | --- | --- | --- |
| OC1(C(F)(F)F)CCN(c2nc(Nc3ccnc(C(F)(F)F)c3)nc(-c3cccc(C(F)(F)F)n3)n2)C1 (stereo not shown) | Sprague-Dawley rat | oral | 5 mg/kg |  | 113% |
| CNC(=O)N[C@]1(C)CCC[C@@]2(C)C3CC[C@@]4(C)C[C@]3(CCC21)CC4=O (single isomer, unassigned) | male Sprague-Dawley rat | oral | 2 mg/kg |  | 6.53% |
| N=C(N)NCCC[C@H](NC(=O)[C@@H]1CCCN1C(=O)[C@H](Cc1ccccc1)NC(=O)[C@@H]1CCCN1C(=O)[C@H](Cc1c[nH]cn1)NC(=O)[C@@H](N)Cc1ccccc1)C(=O)O | rat | oral | 50 mg/kg |  | 88.2% |
| CC(C)(C)C(=O)Nc1ccc2[nH]c(CN3CCC(N(CCCN4CCOCC4)CC4OC(n5cnc6c(N)ncnc65)C(O)C4O)CC3)nc2c1 (stereo not shown) | male Sprague-Dawley rat | intraperitoneal | 20 mg/kg |  | 97.2% |
| Cc1ccc(OCC(=O)N(Cc2cccs2)c2ccn[nH]2)cc1 | male Sprague-Dawley rat | oral | 100 mg/kg | single dose | 0.23% |
| Cc1cc(/C=C/C#N)cc(C)c1Oc1nc(NC2CCN(Cc3ccc(P(C)(C)=O)cc3)CC2)nc2ccsc12 | male Sprague-Dawley rat | oral | 10 mg/kg |  | 40.8% |
| CCOP(=O)(CC(=O)Nc1ccc(S(=O)(=O)N(CC(N)=O)c2ccc(N(CC(N)=O)S(=O)(=O)c3ccc(OC)cc3)c3ccccc23)cc1)OCC | male Wistar rat | oral | 28 mg/kg | single dose | 4.01% |
| COc1cc2ncnc(Oc3ccc(Nc4nccc5[nH]cc(-c6ccc(F)cc6)c(=O)c45)cc3F)c2cc1OC | male Sprague-Dawley rat | oral |  |  | 57% |
| N#Cc1cnc2cc(OCC3CCNCC3)c(F)cc2c1Nc1cc(F)c(OCc2cccc(Cl)n2)cc1Cl | male Sprague-Dawley rat | oral | 30 mg/kg |  | 20% |
| O=C(N[C@@H](CC1CCCCC1)C(=O)N[C@@H](C[C@H]1CCNC1=O)C(=O)C(=O)NC1CC1)OCc1cccc(Cl)c1 | female Sprague-Dawley rat | oral | 10 mg/kg |  | 20% |
| COc1ccc2c(c1OCc1ccccc1)C[C@@H](C(=O)O)N(c1nc3ccc(C#N)cc3o1)C2 | male Sprague-Dawley rat | oral | 10 mg/kg |  | 47% |
| Cc1cc(N)nc(CC2CNCC2OCCNCC(F)(F)c2cccc(F)c2)c1 (stereo not shown) | rat | oral |  |  | 22.2% and 22% |
| COc1cc(NC(C)=O)c2c(c1O)-c1c(OC)c(OC)cc3c1C(C2)N(C)CC3 (stereo not shown) | male Wistar rat | oral |  |  | 76.5% |
| COC(=O)c1ccc2c(c1)NC(=O)/C2=C(\Nc1ccc2c(c1)CCN2C(=O)CN1CCOCC1)c1ccccc1 | Sprague-Dawley rat | oral | 10 mg/kg |  | 68% |
| COc1ccc2c(c1OCc1ccccc1)C[C@@H](C(=O)O)N(c1nc3ccc(F)cc3o1)C2 | male Sprague-Dawley rat | oral | 10 mg/kg |  | 36% |
| CC12CC3CC(C)(C1)CC(NC(=O)Nc1ccc(C(=O)N4CCC[C@H](C(N)=O)C4)cc1F)(C3)C2 | Sprague-Dawley rat | oral | 50 mg/kg |  | 28.6% |

Excerpt of the above:
| Compound | host | route | dose | notes | bioavailability |
| --- | --- | --- | --- | --- | --- |
| O=C(N[C@@H](CC1CCCCC1)C(=O)N[C@@H](C[C@H]1CCNC1=O)C(=O)C(=O)NC1CC1)OCc1cccc(Cl)c1 | female Sprague-Dawley rat | oral | 10 mg/kg |  | 20% |
| COc1ccc2c(c1OCc1ccccc1)C[C@@H](C(=O)O)N(c1nc3ccc(C#N)cc3o1)C2 | male Sprague-Dawley rat | oral | 10 mg/kg |  | 47% |
